Results collected from several papers.
Each numbered part is a random draw from the data of one study; scales do not carry over between parts.
Sequence of UniProt Q99755 (whole entry, looked up): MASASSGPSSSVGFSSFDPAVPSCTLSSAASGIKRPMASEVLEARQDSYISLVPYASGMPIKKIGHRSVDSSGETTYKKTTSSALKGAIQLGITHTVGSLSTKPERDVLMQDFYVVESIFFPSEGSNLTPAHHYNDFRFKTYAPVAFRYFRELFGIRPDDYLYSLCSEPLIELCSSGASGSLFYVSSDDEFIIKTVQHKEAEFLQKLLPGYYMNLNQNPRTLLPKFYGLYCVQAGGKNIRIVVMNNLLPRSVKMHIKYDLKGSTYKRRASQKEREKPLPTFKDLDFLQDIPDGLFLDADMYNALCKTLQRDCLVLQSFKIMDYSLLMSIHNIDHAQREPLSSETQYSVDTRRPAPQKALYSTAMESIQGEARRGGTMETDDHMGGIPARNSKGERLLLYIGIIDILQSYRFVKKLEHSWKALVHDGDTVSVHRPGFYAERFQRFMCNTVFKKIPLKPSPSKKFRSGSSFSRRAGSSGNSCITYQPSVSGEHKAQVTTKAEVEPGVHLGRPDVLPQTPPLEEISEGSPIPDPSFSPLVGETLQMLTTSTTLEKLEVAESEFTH
Sequence of UniProt P54646 (whole entry, looked up): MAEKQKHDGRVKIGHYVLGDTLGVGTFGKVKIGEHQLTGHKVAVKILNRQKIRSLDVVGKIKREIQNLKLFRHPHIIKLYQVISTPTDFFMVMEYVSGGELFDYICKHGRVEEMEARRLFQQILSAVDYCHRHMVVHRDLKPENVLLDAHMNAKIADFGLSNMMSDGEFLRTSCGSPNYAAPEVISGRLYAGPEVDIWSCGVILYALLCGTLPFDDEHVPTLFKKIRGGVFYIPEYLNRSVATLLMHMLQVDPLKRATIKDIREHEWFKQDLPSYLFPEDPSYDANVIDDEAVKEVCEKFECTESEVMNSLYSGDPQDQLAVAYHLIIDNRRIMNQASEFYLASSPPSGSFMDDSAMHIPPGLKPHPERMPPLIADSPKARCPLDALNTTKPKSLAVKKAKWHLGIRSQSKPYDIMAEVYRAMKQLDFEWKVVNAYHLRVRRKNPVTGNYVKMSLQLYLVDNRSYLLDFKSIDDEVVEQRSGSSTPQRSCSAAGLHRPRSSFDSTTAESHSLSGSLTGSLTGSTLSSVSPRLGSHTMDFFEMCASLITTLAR
Sequence of UniProt Q9C098 (whole entry, looked up): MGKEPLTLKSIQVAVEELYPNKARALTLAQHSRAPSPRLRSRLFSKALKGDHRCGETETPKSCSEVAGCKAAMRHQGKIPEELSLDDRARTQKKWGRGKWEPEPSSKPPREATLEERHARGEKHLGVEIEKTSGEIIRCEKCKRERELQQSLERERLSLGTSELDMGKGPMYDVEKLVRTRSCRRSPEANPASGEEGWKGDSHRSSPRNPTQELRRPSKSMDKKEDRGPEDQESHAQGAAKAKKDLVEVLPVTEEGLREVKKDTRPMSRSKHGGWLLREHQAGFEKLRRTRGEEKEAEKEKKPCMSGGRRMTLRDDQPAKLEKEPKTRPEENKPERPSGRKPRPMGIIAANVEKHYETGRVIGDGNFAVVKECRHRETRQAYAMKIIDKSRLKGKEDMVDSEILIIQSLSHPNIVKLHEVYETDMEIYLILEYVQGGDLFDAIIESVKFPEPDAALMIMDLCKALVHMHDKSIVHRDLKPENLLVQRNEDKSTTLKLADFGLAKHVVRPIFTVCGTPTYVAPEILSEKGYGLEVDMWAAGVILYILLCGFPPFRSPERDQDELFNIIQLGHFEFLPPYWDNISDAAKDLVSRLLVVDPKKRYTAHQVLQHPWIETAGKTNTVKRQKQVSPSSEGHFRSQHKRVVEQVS
Sequence of UniProt Q04771 (whole entry, looked up): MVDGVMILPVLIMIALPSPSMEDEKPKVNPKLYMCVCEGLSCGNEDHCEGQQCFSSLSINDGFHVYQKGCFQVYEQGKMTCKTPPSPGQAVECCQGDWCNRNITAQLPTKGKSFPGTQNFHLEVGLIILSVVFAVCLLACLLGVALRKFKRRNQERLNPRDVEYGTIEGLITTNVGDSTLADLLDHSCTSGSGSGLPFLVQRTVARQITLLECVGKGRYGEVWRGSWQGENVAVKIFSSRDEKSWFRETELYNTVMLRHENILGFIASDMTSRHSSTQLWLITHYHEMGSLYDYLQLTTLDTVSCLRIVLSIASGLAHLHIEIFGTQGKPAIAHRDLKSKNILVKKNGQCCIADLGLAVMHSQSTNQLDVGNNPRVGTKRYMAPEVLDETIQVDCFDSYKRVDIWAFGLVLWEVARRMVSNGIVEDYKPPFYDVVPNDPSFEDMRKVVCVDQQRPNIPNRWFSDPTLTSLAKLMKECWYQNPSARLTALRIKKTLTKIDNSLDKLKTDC

Study 1
Target: DNA polymerase theta, ATPase domain (POLQ, Homo sapiens, UniProt O75417)
Sequence of UniProt O75417 (whole entry, unmodified, looked up): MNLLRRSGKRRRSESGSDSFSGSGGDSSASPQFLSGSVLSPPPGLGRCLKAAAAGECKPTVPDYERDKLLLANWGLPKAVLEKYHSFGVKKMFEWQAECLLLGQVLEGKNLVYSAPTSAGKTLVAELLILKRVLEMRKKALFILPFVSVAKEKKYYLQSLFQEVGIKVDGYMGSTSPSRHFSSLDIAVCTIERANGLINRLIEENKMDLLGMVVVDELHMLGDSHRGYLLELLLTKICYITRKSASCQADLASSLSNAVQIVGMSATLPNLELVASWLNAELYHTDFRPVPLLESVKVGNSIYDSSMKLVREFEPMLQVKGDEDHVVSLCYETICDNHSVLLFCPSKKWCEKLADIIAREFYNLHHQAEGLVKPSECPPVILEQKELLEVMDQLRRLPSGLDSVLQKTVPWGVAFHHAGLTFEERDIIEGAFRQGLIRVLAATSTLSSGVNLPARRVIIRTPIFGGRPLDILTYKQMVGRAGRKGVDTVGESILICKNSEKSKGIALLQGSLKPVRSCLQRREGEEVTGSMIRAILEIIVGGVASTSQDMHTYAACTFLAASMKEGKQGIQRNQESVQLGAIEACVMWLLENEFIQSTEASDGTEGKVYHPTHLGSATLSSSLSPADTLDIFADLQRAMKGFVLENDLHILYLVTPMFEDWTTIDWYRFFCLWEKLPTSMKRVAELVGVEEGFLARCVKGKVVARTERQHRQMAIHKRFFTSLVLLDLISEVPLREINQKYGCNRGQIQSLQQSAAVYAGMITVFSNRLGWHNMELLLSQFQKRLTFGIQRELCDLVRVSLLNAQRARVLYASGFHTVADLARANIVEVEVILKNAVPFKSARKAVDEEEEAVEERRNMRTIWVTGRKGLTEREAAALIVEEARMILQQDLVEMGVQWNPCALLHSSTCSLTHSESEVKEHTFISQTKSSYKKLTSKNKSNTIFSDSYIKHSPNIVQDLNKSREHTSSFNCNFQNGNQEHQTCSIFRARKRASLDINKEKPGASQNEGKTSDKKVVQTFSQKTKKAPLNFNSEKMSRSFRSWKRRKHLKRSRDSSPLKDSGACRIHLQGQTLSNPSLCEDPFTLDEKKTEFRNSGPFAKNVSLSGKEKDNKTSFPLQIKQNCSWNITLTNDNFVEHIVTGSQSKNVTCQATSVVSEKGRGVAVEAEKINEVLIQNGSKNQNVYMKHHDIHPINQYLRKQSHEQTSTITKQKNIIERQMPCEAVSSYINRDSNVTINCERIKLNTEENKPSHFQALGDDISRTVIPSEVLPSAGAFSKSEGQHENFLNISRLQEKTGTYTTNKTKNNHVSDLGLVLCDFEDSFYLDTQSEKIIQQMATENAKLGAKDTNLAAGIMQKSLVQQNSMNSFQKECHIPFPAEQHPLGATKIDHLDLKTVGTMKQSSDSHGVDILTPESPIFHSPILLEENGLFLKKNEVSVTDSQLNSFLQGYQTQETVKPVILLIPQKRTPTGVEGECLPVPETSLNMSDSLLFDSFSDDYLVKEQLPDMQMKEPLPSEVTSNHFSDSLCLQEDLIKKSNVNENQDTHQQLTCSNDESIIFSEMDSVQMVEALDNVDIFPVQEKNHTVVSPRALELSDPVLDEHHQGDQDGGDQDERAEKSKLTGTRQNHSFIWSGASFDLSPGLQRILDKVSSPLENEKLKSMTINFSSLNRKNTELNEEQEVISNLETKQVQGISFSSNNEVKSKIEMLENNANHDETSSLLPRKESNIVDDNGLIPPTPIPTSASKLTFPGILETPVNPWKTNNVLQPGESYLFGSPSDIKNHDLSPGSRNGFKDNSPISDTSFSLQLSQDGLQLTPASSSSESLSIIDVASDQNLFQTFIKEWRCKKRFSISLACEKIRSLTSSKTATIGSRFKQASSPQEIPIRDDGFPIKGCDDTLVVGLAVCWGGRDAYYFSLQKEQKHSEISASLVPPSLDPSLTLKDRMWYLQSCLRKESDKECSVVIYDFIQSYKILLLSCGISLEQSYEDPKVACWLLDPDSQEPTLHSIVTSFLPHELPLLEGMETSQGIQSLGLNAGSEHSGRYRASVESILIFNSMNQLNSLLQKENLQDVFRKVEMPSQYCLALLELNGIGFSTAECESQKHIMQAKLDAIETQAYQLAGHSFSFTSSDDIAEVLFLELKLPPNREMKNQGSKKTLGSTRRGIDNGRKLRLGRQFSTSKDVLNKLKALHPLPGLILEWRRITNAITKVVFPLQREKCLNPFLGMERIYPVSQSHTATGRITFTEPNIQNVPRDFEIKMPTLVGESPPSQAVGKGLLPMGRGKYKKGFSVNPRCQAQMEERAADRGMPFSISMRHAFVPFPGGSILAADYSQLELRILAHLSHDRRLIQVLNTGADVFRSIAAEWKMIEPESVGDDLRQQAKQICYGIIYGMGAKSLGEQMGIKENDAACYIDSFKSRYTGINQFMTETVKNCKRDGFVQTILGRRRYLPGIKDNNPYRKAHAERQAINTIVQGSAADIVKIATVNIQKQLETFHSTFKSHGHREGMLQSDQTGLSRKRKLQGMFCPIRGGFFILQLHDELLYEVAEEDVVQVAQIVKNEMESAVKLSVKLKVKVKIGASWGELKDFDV
Read-out: enzyme activity
Action: inhibitor
Tested at: 77 µM
Reference: untreated
Measurement: remaining activity
C[C@@H](Oc1cc(-n2cnc3ccc(CN4CCN(C)CC4)cc32)sc1C(N)=O)c1ccccc1C(F)(F)F: 98.1%
COc1cc(F)c(C(C)C)cc1-c1ccc(C(F)(F)F)cc1CN1C(=O)O[C@H](c2cc(C(F)(F)F)cc(C(F)(F)F)c2)[C@@H]1C: 104%
N[C@@H]1CONC1=O: 101%
CCOC(=O)Nc1cc(-c2ccc(C)c(NS(C)(=O)=O)c2)nn2c(C)nnc12: 99.9%
Oc1ccc([C@H]2COc3cc(O)ccc3C2)cc1: 94.1%
Cc1cc(N2CCOCC2)ccc1Nc1nc(NC2CCCCC2)c2[nH]cnc2n1: 83.6%
CCCC(=O)Nc1ncnc2c1ncn2[C@@H]1O[C@@H]2COP(=O)(O)O[C@H]2[C@H]1OC(=O)CCC: 109%
C[C@]12CCC(=O)C=C1CC[C@@H]1[C@@H]2CC[C@@]2(C)[C@H]1CC[C@]2(O)C(=O)CO: 94.8%

Study 2
Species: human
Medium: microsomes or S9
Tested at: 2 µM
Time: 0.5 h
Measurement: remaining compound
CCN(C1=C(N2CCC(C)CC2)C(=O)c2ccccc2C1=O)c1ccccc1: 39.7%
COC(=O)c1ccc(C2Nc3cc(C)c(C)cc3NC3=C2C(=O)CC(C)(C)C3)cc1 (stereo not shown): 9.14%
Cn1c(=O)c(-c2ccc3ccccc3n2)cc2cc(Br)ccc21: 6.58%
CS(=O)(=O)NCC(=O)N1Cc2ccccc2C(c2ccccc2)C1 (stereo not shown): 96.3%
CC(C)(C)c1ccccc1NC(=O)c1ccc(NC(=O)Nc2ccccc2)s1: 66.5%
COC(=O)/C(=C/C(C)=C/c1cc(C(=O)OC)nc(O)n1)OC: 1.38%
CC(C)COc1cc(=O)n2c(c1C(=O)NCc1ccc(C(F)(F)F)cc1)CCCCC2: 0.195%
CN1CCN(c2nsc(-c3ccccc3)c2C#N)CC1: 32.1%

Study 3
Compound: Cc1ccc(NC(=O)c2ccnc(C(F)(F)F)c2)cc1-c1cc(OCCO)nc(N2CCOCC2)c1
Tested at: 1 µM
Measurement: remaining binding
DCLK3 (Homo sapiens, UniProt Q9C098); competitive binding panel, refers to: DCAMKL3; reference: vehicle: 100%
PRKAA2 (Homo sapiens, UniProt P54646); competitive binding, scanMAX; AMPK-alpha2, 1000 nM: 100%
MAP3K11 (Homo sapiens, UniProt Q16584); competitive binding panel, refers to: MLK3; reference: vehicle: 88%
FGFR3 (Homo sapiens, UniProt P22607); competitive binding panel; reference: vehicle: 90%
RPS6KA4 (Homo sapiens, UniProt O75676); competitive binding scan; N-terminal kinase domain 1: 100%
ABL1 (Homo sapiens, UniProt P00519, H396P); competitive binding panel; reference: vehicle: 100%
ACVR1 (Homo sapiens, UniProt Q04771); competitive binding panel; reference: vehicle: 100%
PIP5K1A (Homo sapiens, UniProt Q99755); competitive binding panel; reference: vehicle: 93%

Single results of other studies
Cc1cc(C)c(-n2ccn3nc(-c4cccnc4)cc23)cc1NC(=O)c1cc(C#N)cc(S(F)(F)(F)(F)F)c1  remaining binding (Cyclin-dependent kinase 2 homolog (CRK2, Plasmodium falciparum, UniProt P61075); cell-free assay, competition with immobilised ligand; 0.1 µM): 90.9%

Some of these lines once more (study 3):
ACVR1 (Homo sapiens, UniProt Q04771); competitive binding panel; reference: vehicle: 100%
PIP5K1A (Homo sapiens, UniProt Q99755); competitive binding panel; reference: vehicle: 93%
